Published values of several laboratories.
Lines come from different studies, so protocols differ. Numbers after ± are the reported error.
Target: Fibroblast growth factor receptor 1 (FGFR1, Homo sapiens, UniProt P11362)
Chain of UniProt P11362 (whole entry, looked up): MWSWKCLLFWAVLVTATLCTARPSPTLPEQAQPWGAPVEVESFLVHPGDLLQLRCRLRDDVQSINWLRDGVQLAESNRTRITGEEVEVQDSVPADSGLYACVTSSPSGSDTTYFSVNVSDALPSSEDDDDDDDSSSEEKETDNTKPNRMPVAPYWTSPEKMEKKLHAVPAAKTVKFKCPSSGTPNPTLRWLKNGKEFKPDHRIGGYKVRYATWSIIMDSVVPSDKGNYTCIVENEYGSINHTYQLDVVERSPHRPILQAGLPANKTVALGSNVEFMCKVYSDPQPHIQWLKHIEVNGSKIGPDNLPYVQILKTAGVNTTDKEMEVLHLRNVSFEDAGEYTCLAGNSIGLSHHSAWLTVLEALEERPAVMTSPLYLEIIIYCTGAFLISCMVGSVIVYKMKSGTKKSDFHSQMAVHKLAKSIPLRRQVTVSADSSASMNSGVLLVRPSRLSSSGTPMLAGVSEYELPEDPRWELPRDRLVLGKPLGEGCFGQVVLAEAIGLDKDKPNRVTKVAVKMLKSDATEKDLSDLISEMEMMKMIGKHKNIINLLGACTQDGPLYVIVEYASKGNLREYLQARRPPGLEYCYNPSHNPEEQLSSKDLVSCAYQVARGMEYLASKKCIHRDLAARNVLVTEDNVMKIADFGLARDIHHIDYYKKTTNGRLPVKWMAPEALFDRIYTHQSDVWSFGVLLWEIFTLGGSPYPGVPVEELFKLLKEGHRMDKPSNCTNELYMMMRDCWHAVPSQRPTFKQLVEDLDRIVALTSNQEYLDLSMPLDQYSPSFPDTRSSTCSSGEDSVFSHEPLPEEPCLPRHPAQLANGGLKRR

SMILES = FC(F)(F)c1cccc(Cc2c[nH]c3ncc(C(F)(F)F)cc23)c1; assay = enzyme activity, inhibitor; conditions = 1 µM; measurement = inhibition; value = 19%
SMILES = C=C(C)C(=O)Nc1ccc(-c2c(-c3ccc(Oc4cccc(C)n4)cc3)c3c(N)ncnc3n2C)cc1; assay = kinase activity, Caliper; scale = relative to: FGFR1 over 5; measurement = fold potency loss; value = 40 fold
SMILES = FC(F)(F)c1cnc2[nH]cc(Cc3cccc(Oc4ccccc4)c3)c2c1; assay = enzyme activity, inhibitor; conditions = 0.1 µM; measurement = inhibition; value = 21%
SMILES = COc1cc(-c2cnc3nc2NCCCNS(=O)(=O)c2cccc(c2)N3)ccc1F; assay = differential scanning fluorimetry; conditions = 10 µM; scale = higher = stronger binding; measurement = thermal shift ΔTm; value = 3.3 K
SMILES = Cc1cc(C)c2oc(-c3c4c(N)n[nH]c(=O)c4nn3-c3ccccc3)c(C)c2c1; assay = enzyme activity, inhibitor, ELISA; conditions = 0.1 µM; measurement = inhibition; value = 16.8%
SMILES = CNc1ncc2cc(-c3cc(OC)cc(OC)c3Cl)c(=O)n(CCc3ccc(NC(=O)/C(C#N)=C/C(C)(C)NC)cc3)c2n1; assay = fluorescence competition; measurement = residence time; value = 6600 ± 2460 min
SMILES = Cc1c(-c2c3c(N)n[nH]c(=O)c3nn2-c2ccccc2)oc2ccc(F)cc12; assay = enzyme activity, inhibitor, ELISA; conditions = 0.1 µM; measurement = inhibition; value = 55.7%
SMILES = OC(c1cccc(Oc2ccccc2)c1)c1c[nH]c2ncc(C(F)(F)F)cc12 (stereo not shown); assay = enzyme activity, inhibitor; conditions = 1 µM; measurement = inhibition; value = 34%
SMILES = Cc1c(-c2c3c(N)n[nH]c(=O)c3nn2-c2ccccc2)oc2c(C)cccc12; assay = enzyme activity, inhibitor, ELISA; conditions = 0.1 µM; measurement = inhibition; value = 17.8%
SMILES = COc1cc(C(=O)NC2CCC(N3CCN(CC4CCC5(CCCC5)C4)CC3)CC2)c(F)cc1Nc1ncc2c(n1)N(C1CCCC1(F)F)CC(F)(F)C(=O)N2C (stereo not shown); assay = cell-free assay, TR-FRET; conditions = 10 µM; measurement = inhibition; value = 0.87%

Excerpt of the above:
SMILES = CNc1ncc2cc(-c3cc(OC)cc(OC)c3Cl)c(=O)n(CCc3ccc(NC(=O)/C(C#N)=C/C(C)(C)NC)cc3)c2n1; assay = fluorescence competition; measurement = residence time; value = 6600 ± 2460 min
